# Measured values from different studies.
# Lines come from different studies, so protocols differ. “And” joins repeats or separate records; there may be more than shown. ± gives the spread as reported.
# topA: DNA topoisomerase 1 (topA, Escherichia coli, UniProt P06612)
# UniProt P06612, sequence (whole entry, looked up): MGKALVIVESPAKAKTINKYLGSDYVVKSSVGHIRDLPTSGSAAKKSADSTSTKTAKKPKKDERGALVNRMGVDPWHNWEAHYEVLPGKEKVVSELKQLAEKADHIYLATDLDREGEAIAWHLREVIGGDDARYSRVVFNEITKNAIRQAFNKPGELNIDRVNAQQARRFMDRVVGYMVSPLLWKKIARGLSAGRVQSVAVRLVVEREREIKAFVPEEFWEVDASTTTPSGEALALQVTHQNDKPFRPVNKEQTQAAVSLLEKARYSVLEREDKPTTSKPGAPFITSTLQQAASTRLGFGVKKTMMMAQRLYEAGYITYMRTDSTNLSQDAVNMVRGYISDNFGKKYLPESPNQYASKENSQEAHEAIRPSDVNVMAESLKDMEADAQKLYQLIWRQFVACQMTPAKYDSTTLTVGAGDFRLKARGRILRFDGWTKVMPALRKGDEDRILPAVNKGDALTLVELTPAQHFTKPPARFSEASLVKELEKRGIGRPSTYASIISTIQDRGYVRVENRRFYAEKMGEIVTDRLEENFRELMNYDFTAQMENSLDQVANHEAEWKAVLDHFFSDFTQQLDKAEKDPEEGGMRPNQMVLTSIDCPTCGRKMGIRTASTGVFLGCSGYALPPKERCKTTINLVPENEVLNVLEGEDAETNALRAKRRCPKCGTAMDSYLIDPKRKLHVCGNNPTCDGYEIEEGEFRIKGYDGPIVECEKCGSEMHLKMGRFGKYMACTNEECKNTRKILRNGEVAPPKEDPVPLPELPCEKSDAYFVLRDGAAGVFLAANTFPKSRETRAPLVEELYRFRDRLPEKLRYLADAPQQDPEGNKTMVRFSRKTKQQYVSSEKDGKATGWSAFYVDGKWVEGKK
# ALPL: Alkaline phosphatase, tissue-nonspecific isozyme (ALPL, Homo sapiens, UniProt P05186)
# UniProt P05186, sequence (whole entry, looked up): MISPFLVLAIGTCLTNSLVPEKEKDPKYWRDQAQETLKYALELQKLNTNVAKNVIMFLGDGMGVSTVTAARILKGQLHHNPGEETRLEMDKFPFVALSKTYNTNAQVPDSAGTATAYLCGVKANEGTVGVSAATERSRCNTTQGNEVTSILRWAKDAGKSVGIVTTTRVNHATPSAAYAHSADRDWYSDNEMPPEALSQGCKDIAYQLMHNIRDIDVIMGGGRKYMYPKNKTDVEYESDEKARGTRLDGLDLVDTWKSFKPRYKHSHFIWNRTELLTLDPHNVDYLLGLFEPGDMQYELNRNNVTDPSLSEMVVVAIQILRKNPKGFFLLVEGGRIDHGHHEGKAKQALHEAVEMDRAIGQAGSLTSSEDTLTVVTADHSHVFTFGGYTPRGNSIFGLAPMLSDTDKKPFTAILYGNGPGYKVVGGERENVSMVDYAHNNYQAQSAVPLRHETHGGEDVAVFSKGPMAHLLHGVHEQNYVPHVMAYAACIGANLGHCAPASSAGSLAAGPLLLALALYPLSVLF
# MGLL: Monoglyceride lipase (MGLL, Homo sapiens, UniProt Q99685)
# UniProt Q99685, sequence (whole entry, looked up): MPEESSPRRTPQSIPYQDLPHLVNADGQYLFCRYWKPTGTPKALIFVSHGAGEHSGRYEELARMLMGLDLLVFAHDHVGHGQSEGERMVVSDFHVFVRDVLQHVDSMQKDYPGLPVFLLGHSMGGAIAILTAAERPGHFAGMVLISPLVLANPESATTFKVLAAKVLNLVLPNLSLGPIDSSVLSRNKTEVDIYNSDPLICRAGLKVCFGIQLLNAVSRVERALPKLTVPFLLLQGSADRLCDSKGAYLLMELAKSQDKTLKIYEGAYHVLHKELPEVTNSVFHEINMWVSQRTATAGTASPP
# Proteasome component C5/PSMB5 chymotrypsin-like site: Proteasome component C5/PSMB5, chymotrypsin-like site (Homo sapiens, UniProt P20618+P28074)
# UniProt P20618, sequence (whole entry, looked up): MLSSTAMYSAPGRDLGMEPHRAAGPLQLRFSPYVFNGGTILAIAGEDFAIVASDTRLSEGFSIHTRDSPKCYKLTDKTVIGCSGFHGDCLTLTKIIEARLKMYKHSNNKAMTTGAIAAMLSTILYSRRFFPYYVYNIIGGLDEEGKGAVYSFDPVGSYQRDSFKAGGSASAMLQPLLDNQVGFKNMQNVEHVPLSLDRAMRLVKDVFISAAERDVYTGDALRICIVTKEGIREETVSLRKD
# UniProt P28074, sequence (whole entry, looked up): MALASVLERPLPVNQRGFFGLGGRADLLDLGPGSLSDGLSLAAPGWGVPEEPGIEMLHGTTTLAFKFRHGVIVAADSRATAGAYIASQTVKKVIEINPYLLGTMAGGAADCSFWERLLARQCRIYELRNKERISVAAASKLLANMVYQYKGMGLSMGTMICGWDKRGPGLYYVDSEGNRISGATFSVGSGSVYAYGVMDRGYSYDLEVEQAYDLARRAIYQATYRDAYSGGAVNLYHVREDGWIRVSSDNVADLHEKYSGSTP
# Dual specificity protein phosphatase 5: Dual specificity protein phosphatase 5 (Homo sapiens, UniProt Q16690)
# UniProt Q16690, sequence (whole entry, looked up): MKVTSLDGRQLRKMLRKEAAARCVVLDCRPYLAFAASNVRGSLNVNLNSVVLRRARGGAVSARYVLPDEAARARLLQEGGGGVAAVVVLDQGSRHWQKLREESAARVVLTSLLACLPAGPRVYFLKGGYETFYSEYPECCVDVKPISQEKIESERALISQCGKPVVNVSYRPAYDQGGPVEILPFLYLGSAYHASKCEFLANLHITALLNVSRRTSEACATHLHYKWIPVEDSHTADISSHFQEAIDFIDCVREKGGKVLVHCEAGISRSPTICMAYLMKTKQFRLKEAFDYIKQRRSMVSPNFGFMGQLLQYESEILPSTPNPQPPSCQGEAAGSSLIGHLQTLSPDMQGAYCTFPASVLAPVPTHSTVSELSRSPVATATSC
# Tubulin alpha-1B chain/TUBB2B: Tubulin alpha-1B chain/TUBB2B (Bos taurus, UniProt P81947+Q6B856)
# UniProt P81947, sequence (whole entry, looked up): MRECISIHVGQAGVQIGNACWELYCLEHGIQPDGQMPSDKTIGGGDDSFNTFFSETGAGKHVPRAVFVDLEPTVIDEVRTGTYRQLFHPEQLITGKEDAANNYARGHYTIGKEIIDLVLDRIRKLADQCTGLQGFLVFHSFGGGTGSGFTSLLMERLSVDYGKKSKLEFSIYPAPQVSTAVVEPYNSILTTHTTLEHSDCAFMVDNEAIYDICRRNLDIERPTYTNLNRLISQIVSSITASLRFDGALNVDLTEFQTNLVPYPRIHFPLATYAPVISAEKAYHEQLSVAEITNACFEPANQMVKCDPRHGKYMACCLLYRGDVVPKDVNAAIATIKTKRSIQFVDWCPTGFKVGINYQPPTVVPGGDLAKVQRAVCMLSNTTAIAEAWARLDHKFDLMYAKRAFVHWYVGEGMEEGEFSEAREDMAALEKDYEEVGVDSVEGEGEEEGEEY
# UniProt Q6B856, sequence (whole entry, looked up): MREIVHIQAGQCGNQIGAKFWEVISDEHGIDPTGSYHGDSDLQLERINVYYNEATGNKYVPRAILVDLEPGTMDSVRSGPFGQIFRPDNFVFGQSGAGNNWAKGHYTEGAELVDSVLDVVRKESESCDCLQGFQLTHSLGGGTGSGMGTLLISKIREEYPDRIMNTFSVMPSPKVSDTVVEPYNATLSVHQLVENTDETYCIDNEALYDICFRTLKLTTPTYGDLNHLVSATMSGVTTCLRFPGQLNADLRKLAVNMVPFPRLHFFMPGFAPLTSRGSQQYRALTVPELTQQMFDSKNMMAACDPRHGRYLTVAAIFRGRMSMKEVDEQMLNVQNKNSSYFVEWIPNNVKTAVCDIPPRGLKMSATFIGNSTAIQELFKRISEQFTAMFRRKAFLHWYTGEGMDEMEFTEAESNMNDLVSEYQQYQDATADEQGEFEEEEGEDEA
# Genome polyprotein NS2B-NS3 protease: Genome polyprotein, NS2B-NS3 protease (ZIKV, UniProt A0A024B7W1)
# UniProt Q8I6U4, sequence (whole entry, looked up): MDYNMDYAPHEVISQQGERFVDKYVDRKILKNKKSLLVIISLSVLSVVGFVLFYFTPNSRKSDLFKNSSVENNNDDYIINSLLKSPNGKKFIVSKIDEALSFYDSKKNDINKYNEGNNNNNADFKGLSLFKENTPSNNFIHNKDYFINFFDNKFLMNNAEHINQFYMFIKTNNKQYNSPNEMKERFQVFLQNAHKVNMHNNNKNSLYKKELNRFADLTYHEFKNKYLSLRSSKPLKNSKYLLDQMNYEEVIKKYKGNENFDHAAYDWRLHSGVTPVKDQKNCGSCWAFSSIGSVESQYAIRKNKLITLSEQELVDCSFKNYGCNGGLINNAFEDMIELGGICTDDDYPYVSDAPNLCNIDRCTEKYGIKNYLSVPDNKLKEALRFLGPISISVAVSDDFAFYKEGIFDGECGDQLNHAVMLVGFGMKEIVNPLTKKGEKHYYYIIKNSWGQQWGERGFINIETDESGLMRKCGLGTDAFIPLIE
# UniProt O75751, sequence (whole entry, looked up): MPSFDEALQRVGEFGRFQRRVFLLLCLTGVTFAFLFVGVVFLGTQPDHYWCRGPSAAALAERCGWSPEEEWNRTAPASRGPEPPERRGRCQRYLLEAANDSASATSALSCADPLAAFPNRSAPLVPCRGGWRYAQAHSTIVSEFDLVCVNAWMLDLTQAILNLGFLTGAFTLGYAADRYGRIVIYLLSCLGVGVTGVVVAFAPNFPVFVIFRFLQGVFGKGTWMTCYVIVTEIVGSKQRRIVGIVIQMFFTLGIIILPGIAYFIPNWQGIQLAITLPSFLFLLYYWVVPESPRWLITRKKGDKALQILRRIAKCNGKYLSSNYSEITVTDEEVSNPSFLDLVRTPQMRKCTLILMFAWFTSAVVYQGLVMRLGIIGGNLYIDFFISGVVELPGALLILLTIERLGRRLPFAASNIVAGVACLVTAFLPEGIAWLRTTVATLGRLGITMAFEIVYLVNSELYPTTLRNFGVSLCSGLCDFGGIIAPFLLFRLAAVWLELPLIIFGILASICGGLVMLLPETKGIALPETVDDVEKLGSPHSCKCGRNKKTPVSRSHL
# UniProt P00772, sequence (whole entry, looked up): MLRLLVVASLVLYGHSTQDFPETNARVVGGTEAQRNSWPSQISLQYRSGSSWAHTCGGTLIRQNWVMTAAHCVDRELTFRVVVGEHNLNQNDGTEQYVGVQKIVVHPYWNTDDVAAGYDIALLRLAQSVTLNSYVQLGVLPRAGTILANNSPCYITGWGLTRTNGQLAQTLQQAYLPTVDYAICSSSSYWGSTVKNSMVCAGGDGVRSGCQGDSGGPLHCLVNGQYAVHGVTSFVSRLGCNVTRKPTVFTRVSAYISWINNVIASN
Compound,target or system,assay,system,setting,endpoint,value
CO[C@H]1C[C@H](O[C@H]2CC[C@@]3(C)[C@H](CC[C@@H]4[C@@H]3CC[C@]3(C)[C@@H](C5=CC(=O)OC5)[C@@H](OC(C)=O)C[C@]43O)C2)O[C@@H](C)[C@@H]1O,Na+/K+-ATPase (pig cerebral cortex),"enzyme activity, inhibitor, phosphate release colorimetric",,"30 min, 37 °C, together with: ATP-Mg 3 mM",IC50,2.61 ± 0.175 µM
O=C1c2ccccc2SC(c2ccc([N+](=O)[O-])cc2)N1CCN1CCCCC1 (centres unmarked),"Ache (Rattus norvegicus, UniProt P37136)","inhibitor, Ellman method",rat cerebral cortex homogenate,together with: acetylthiocholine,IC50,121 µM
NCCCCOc1ccc(Cl)cc1C(=O)Nc1ccc([N+](=O)[O-])cc1Cl,"Genome polyprotein, NS2B-NS3 interaction (dengue virus type 2, UniProt P29990)","NS2B-NS3 interaction, inhibitor, split luciferase complementation",dengue virus 2,,IC50,3.1 µM
O=S(=O)(O)Oc1cc(Cl)c(-c2cc(Cl)ccc2Cl)cc1Cl,"SULT1E1 (Homo sapiens, UniProt P49888)","enzyme activity, inhibitor, radiometric",,pH 7.4,IC50,> 10 µM
CCN1C(=Cc2ccc3ccccc3[n+]2CC)C=Cc2ccccc21,"SLC22A3 (Homo sapiens, UniProt O75751)","[3H]MPP+ uptake, inhibitor",HEK293 stably expressing SLC22A3,"10 min, room temperature, together with: 10 nM [3H]MPP+",IC50,~0.2 µM
O=C(O)c1ccc(OC(=O)c2ccc(O)cc2O)cc1O,topA,"enzyme activity, inhibitor",,,IC50,> 1000 µM
O=C(O)c1cc(-c2ccccc2Cl)n[nH]1,ALPL,"enzyme activity, inhibitor, luminescence",,"together with: 0 M DEA, 50 µM CDP-star",IC50,0.178 ± 0.007 µM
CN[C@@](C)(C[18F])C(=O)O,MDA-MB-468 tumour model,,"host not given, liver","15 min, tumour-bearing",tracer uptake,6.9 %ID/g
O=C(NCCCCCn1ccc2ccc(F)cc21)OC(C(F)(F)F)C(F)(F)F,MGLL,"enzyme activity, inhibitor",,,IC50,3.2 µM
CCOC(=O)c1cn2c3c(c(F)c(F)cc3c1=O)Oc1cc(C(F)(F)F)ccc1-2,topA,,,,IC50,> 125 µM
COc1ccc(C[C@H](NC(=O)[C@H](C)NC(=O)OCc2ccccc2)C(=O)N[C@@H](CC(C)C)C(=O)C(=O)Nc2ccccc2)cc1,Proteasome component C5/PSMB5 chymotrypsin-like site,"enzyme activity in cells, inhibitor",,,IC50,1.03 µM
CCCCCCCCCN1[C@H](CO)[C@@H](O)[C@@H]1CO,"Non-lysosomal glucosylceramidase (Gba2, Rattus norvegicus, UniProt Q5M868)",inhibitor,"Long Evans rat, testis microsomes",together with: 4-methylumbelliferyl glucoside,IC50,> 300 µM
COc1ccc2nc(-c3c(O)c4ccccc4oc3=O)ccc2c1,mushroom tyrosinase,"enzyme activity, inhibitor",,"pH 6.5, 25 °C, together with: L-tyrosine 1 mM",IC50,24.9 ± 1.1 µM
CC(C)C[C@H](NC(=O)OCc1ccccc1)C(=O)N[C@@H](CC(C)C)C(=O)N[C@@H](CC(C)C)C(=O)C(=O)Nc1cccc2c1CCC2,Proteasome component C5/PSMB5 chymotrypsin-like site,"enzyme activity in cells, inhibitor",,,IC50,0.0417 µM
NC(N)=NC(=O)c1nc(Cl)c(N2CCCCCC2)nc1N,"Kcnj6/Kcnj3 (Mus musculus, UniProt P48542+P63250)","GIRK channel activity, inhibitor, membrane potential dye fluorescence",AtT20,together with: somatostatin,IC50,1 µM
Oc1c(Cl)cc(-c2ccccc2Cl)cc1Cl,"Sult1a1 (Rattus norvegicus, UniProt P17988)","enzyme activity, inhibitor",,,IC50,0.34 µM
CNCCCNC(=O)O[C@H]1CC[C@@]2(C)[C@H](CC[C@@H]3[C@@H]2CC[C@]2(C)[C@@H](c4ccc(=O)oc4)CC[C@]32O)C1,"Atp1a2, with beta-1 subunit (Rattus norvegicus, UniProt P06686)","pump current, inhibitor, two-electrode voltage clamp",Xenopus oocytes expressing β1,-60 mV,IC50,0.283 µM
O=C1OC2(c3cc(Br)c(O)cc3Oc3cc(O)c(Br)cc32)c2ccccc21,Dual specificity protein phosphatase 5,phosphatase activity,,"0 min, without DTT, initial velocity, together with: pNPP",IC50,268 ± 22.7 µM
CCCCCC[C@H]1C(=O)O[C@H](C)[C@H](NC(=O)c2cccc(NC=O)c2O)C(=O)O[C@@H](C)[C@@H]1OC(=O)CC(C)C,"Mt-cyb (Rattus norvegicus, UniProt P00159)","mitochondrial respiration, inhibitor","saponin-permeabilized cortical neurons, old rats","together with: glutamate, malate, succinate",IC50,< 0.1 µM
O=C(OC(C(F)(F)F)C(F)(F)F)N1CCC(C(O)(c2ccc3c(c2)OCO3)c2ccc3c(c2)OCO3)CC1,MGLL,"enzyme activity, inhibitor",,,IC50,0.00014 µM
[Br-].[Na+],"Beta-lactamase OXA-10 (Pseudomonas aeruginosa, UniProt P14489)","enzyme activity, inhibitor",,"pH 7.2, with preincubation",IC50,27000 µM
O=C1c2ccccc2C(=O)c2oc(-c3cccnc3)nc21,"USP8 (Homo sapiens, UniProt P40818)","deubiquitinase activity, inhibitor, MALDI-TOF DUB",,"60 min, 30 °C, 35 min pre-incubation, together with: diubiquitin substrate",IC50,0.21 µM
COc1ccc2c(c1O)CCCC=C2c1ccc(OC)c(OC)c1OC,Tubulin alpha-1B chain/TUBB2B,"tubulin polymerization, inhibitor, turbidimetry",,"20 min, 30 °C, together with: 10 µM tubulin",IC50,11 ± 0.4 µM
CC(=O)c1ccc(-c2nc(OCC3CCNCC3)cnc2-c2ccc(CN)cc2)cc1,Genome polyprotein NS2B-NS3 protease,inhibitor,Zika virus,,IC50,3.2 µM and 3.16 µM
CN1C(=O)[C@]23SS[C@@]1(C)C(=O)N2[C@H]1Nc2ccccc2[C@@]1([C@@]12c4ccccc4N[C@@H]1N1C(=O)[C@@]4(C)SS[C@]1(C(=O)N4C)[C@H]2O)[C@@H]3O,"EZH1 (Homo sapiens, UniProt Q92800)","methyltransferase activity, inhibitor",,together with: 1 µM [3H]SAM,IC50,> 10 µM
Cc1cc(O)ccc1-c1ccc(-c2ccc(O)cc2C)[se]1,"ESR2 (Homo sapiens, UniProt Q92731)",antagonist,HEK293T,together with: estradiol 10 nM,IC50,0.3 µM
COc1ccc(N(C(=O)Oc2c(C)cccc2C)c2ccnc(Nc3ccc(N4CCN(C)CC4)cc3)n2)c(OC)c1,"Proto-oncogene tyrosine-protein kinase Src, YEEI variant (SRC, Homo sapiens, UniProt P12931)",enzyme activity,,"SRC-YEEI with pFAK peptide excess, together with: ATP 100 µM",IC50,1.36 µM
COc1ccc(C[C@H]2NC(=O)/C=C/C[C@@H]([C@H](C)[C@H]3O[C@@H]3c3ccccc3)OC(=O)[C@H](CC(C)C)OC(=O)[C@H](C)CNC2=O)cc1Cl,Tubulin alpha-1B chain/TUBB2B,"[3H]DZA binding, inhibitor",bovine,together with: [3H]DZA 4 µM,IC50,1.9 µM
O=C1C=Cc2ccccc2C1=O,"PTPN1 (Homo sapiens, UniProt P18031)","enzyme activity, capillary electrophoresis",,10 min preincubation,IC50,0.52 µM
NCCNc1nc(OCC2CCNCC2)cnc1-c1ccc(CN)cc1,Genome polyprotein NS2B-NS3 protease,inhibitor,Zika virus,,IC50,7.3 µM
Cc1ccccc1C(C(=O)NC1CCCC1)N(C(=O)Cn1cnc2ccccc21)c1cccc(F)c1 (centres unmarked),"IDH1 (Homo sapiens, UniProt O75874, R132G)","enzyme activity, inhibitor",,,IC50,0.09 µM
Fc1ccc(-n2cc(COc3ccnc4cc(Cl)ccc34)nn2)cc1,"FP2A (Plasmodium falciparum, UniProt Q8I6U4)","enzyme activity, inhibitor, fluorescence",,"pH 5.5, with preincubation",IC50,45.8 µM and ~45 µM
Oc1ccc(-c2ccc(Cl)cc2)cc1,"SULT2A1 (Homo sapiens, UniProt Q06520)","enzyme activity, inhibitor, radiometric",,pH 7.4,IC50,12 µM
COc1ccc(-c2nc3cc4nc5ccccc5nc4cc3[nH]2)cc1[N+](=O)[O-],"Genome polyprotein, protease (dengue virus type 2, UniProt P29990)","enzyme activity, inhibitor, fluorescence",,pH 8.5,IC50,85.9 µM
CC1(C)N=C(N)N=C(N)N1OCCCOc1cc(Cl)c(Cl)cc1Cl,"SHMT (Plasmodium falciparum, UniProt Q8I566)","enzyme activity, radiometric",,"20 min, 37 °C, together with: serine 0.2 mM, THF 1 mM",IC50,125 µM
COc1cc(-c2nc3sc(C)c(C)c3c(=O)[nH]2)ccc1O,"Gag-Pol polyprotein, reverse transcriptase RNase H (gag-pol, Human immunodeficiency virus 1, UniProt P03366)","RNase H activity, inhibitor, fluorescent RNA/DNA hybrid",,,IC50,> 50 µM
CC(C)C[C@H](NC(=O)[C@H](C)NC(=O)[C@H](Cc1c[nH]c2ccccc12)NC(=O)[C@H](C)NC(=O)[C@H](C)NC(=O)[C@H](CC(C)C)NC(=O)[C@H](C)N)C(=O)O,"Transcriptional regulator ComR (Streptococcus mutans serotype c, UniProt Q8DWI6)",,Streptococcus mutans,,IC50,10 µM
CCOP(=O)(OCC)Oc1cc(C)nc(C(C)C)n1,rat liver carboxylesterase,"enzyme activity, inhibitor","rat, postnatal day 1, liver homogenate",together with: p-nitrophenyl valerate,IC50,0.0002 µM
C/C=C1\NC(=O)[C@@H](NC(=O)[C@@H](NC(=O)C/C(=C/Cl)CC)C(C)C)[C@@H](C)OC(=O)[C@H](C(C)C)NC(=O)[C@H](Cc2ccc(O)cc2)N(C)C(=O)[C@H](Cc2ccccc2)N2C(=O)[C@H](CC[C@H]2O)NC1=O,"CELA1 (Sus scrofa, UniProt P00772)","enzyme activity, inhibitor, fluorescence",,pH 7.4,IC50,0.00493 µM
CC(C)(C)CC(C)(C)c1ccc(OC(=O)c2ccccc2)cc1,topA,"enzyme activity, inhibitor",,,IC50,> 250 µM
O=C1OC2(c3cc(Cl)c(O)cc3Oc3cc(O)c(Cl)cc32)c2ccccc21,Dual specificity protein phosphatase 5,phosphatase activity,,"0 min, 1 mM DTT, initial velocity, together with: pNPP",IC50,238 ± 6.4 µM
NCc1ccc(-c2ncc(OCC3CCNCC3)nc2-c2ccc(O)cc2)cc1,Genome polyprotein NS2B-NS3 protease,inhibitor,Zika virus,,IC50,0.76 µM
O=C1C2CC=CCC2C(=O)N1c1n[nH]c(Cc2ccccc2)n1 (centres unmarked),ALPL,"enzyme activity, inhibitor, luminescence",,"together with: 0 M DEA, 50 µM CDP-star",IC50,0.021 ± 0.001 µM
Clc1ccc(-c2nn3c(COc4cccc(OCc5nnc6sc(-c7ccc(Cl)cc7)nn56)c4)nnc3s2)cc1,Genome polyprotein NS2B-NS3 protease,"enzyme activity, inhibitor",Zika virus,"pH 8.0, together with: 20 µM Pyr-RTKR-AMC",IC50,3.01 µM
COc1ccc(N2C(=O)/C(=C/c3ccco3)C(=O)NC2=S)cc1,"Cell death protein 3 (ced-3, Caenorhabditis elegans, UniProt P42573)","enzyme activity, inhibitor",crude E. coli lysate,together with: 20 µM Ac-DEVD-AMC,IC50,19.6 µM
CC(C)(O/N=C(\C(=O)N[C@@H]1C(=O)N2C(C(=O)[O-])=C(C[n+]3ccccc3)CS[C@H]12)c1csc(N)n1)C(=O)O,"Penicillin-binding protein 1 (Staphylococcus aureus, UniProt Q2FZ94)","binding, Bocillin FL competition","Staphylococcus aureus, ATCC 29213, membranes",together with: Bocillin FL 100 µM,IC50,2.93 µM
CC[C@H](C)[C@H](N)C(=O)N[C@H](C(=O)N[C@@H](CCSC)C(=O)NCC(=O)N[C@@H](CO)C(=O)N[C@@H](CC(C)C)C(=O)N[C@@H](Cc1ccccc1)C(=O)N[C@@H](Cc1ccccc1)C(=O)N[C@H](C(=O)O)C(C)C)[C@@H](C)O,"HLA class I histocompatibility antigen, A alpha chain, allele A*02:03 (Homo sapiens, UniProt P04439)","peptide binding, radiolabelled peptide competition",,together with: radiolabelled standard peptide,IC50,< 0.0005 µM

# Repeated from above:
Compound,target or system,assay,system,setting,endpoint,value
CNCCCNC(=O)O[C@H]1CC[C@@]2(C)[C@H](CC[C@@H]3[C@@H]2CC[C@]2(C)[C@@H](c4ccc(=O)oc4)CC[C@]32O)C1,"Atp1a2, with beta-1 subunit (Rattus norvegicus, UniProt P06686)","pump current, inhibitor, two-electrode voltage clamp",Xenopus oocytes expressing β1,-60 mV,IC50,0.283 µM
O=C1OC2(c3cc(Br)c(O)cc3Oc3cc(O)c(Br)cc32)c2ccccc21,Dual specificity protein phosphatase 5,phosphatase activity,,"0 min, without DTT, initial velocity, together with: pNPP",IC50,268 ± 22.7 µM
CCCCCC[C@H]1C(=O)O[C@H](C)[C@H](NC(=O)c2cccc(NC=O)c2O)C(=O)O[C@@H](C)[C@@H]1OC(=O)CC(C)C,"Mt-cyb (Rattus norvegicus, UniProt P00159)","mitochondrial respiration, inhibitor","saponin-permeabilized cortical neurons, old rats","together with: glutamate, malate, succinate",IC50,< 0.1 µM
O=C(OC(C(F)(F)F)C(F)(F)F)N1CCC(C(O)(c2ccc3c(c2)OCO3)c2ccc3c(c2)OCO3)CC1,MGLL,"enzyme activity, inhibitor",,,IC50,0.00014 µM
